Measurements of several laboratories.
Parts stem from different laboratories: compare values within a part only.
Sequence of UniProt Q9UIK4 (whole entry, looked up): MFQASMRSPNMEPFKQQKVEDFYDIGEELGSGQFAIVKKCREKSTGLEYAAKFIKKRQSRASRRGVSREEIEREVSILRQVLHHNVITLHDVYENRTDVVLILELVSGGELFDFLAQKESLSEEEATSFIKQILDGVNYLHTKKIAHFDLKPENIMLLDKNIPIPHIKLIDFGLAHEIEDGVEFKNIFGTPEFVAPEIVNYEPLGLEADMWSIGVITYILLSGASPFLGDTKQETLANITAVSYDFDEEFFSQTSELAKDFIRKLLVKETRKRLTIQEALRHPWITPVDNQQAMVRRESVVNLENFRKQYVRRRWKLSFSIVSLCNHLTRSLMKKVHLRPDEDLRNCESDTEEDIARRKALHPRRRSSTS
Sequence of UniProt P51955 (whole entry, looked up): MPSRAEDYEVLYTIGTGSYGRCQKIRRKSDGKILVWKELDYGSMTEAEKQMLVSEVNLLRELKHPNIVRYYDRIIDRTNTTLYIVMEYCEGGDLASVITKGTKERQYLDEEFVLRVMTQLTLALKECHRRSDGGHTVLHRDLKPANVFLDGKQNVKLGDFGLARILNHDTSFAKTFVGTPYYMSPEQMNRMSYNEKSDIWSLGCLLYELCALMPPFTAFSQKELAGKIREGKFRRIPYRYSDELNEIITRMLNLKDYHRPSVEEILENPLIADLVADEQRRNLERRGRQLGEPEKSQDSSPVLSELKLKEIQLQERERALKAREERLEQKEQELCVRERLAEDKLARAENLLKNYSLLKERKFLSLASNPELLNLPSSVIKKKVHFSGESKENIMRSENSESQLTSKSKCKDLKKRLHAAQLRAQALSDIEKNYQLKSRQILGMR
Sequence of UniProt Q15831 (whole entry, looked up): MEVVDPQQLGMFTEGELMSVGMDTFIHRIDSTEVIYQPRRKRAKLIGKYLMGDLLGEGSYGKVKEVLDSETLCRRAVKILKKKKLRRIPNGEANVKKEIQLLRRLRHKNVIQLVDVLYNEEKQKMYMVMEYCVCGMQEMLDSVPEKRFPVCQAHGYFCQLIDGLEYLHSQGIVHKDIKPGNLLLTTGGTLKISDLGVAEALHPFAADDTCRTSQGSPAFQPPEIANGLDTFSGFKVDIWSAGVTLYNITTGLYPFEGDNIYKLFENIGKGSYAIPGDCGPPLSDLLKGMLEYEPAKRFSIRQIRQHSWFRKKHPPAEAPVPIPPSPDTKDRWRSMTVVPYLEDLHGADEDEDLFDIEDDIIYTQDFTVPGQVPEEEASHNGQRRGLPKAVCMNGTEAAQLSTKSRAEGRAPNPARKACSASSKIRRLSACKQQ
Sequence of UniProt Q15375 (whole entry, looked up): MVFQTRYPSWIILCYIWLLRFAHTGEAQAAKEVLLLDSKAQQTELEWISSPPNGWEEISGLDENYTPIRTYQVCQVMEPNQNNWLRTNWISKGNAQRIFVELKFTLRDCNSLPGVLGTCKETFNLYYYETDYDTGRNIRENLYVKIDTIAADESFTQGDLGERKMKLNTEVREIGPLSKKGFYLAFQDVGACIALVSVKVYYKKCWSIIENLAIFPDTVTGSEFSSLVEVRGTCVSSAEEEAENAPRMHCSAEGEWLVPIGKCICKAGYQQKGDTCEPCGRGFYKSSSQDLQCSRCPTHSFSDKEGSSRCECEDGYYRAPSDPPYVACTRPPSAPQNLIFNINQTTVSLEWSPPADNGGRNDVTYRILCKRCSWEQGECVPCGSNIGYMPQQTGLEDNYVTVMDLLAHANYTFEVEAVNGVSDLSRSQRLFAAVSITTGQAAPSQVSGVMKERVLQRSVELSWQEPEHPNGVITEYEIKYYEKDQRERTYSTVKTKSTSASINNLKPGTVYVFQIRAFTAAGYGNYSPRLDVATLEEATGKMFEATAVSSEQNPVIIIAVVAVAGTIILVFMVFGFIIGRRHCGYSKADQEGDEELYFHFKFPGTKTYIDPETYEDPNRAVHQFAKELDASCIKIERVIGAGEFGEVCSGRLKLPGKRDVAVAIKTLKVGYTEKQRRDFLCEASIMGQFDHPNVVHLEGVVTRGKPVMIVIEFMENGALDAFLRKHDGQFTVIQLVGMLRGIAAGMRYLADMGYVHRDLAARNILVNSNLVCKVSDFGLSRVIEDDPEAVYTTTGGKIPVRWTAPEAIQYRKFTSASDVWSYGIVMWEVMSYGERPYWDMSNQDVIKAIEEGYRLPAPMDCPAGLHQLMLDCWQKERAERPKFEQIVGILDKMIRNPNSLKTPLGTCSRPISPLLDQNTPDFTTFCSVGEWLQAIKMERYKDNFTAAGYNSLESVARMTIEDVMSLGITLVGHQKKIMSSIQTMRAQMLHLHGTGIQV
Sequence of UniProt P37173 (whole entry, looked up): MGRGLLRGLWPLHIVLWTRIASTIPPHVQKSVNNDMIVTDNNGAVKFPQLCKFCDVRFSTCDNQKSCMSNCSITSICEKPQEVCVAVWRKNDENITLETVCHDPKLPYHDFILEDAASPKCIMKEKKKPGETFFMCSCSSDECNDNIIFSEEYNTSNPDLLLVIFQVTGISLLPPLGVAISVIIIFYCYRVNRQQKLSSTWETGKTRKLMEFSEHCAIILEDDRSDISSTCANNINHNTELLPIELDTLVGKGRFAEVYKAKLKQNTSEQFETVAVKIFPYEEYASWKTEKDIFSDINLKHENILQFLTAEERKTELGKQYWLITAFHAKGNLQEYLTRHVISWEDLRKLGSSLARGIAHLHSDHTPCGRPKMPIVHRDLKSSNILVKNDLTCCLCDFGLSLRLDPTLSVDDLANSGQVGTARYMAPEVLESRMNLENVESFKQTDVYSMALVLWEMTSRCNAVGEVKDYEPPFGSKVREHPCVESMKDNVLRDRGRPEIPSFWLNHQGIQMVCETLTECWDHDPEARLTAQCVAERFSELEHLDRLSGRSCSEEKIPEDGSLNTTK
Sequence of UniProt O75460 (whole entry, looked up): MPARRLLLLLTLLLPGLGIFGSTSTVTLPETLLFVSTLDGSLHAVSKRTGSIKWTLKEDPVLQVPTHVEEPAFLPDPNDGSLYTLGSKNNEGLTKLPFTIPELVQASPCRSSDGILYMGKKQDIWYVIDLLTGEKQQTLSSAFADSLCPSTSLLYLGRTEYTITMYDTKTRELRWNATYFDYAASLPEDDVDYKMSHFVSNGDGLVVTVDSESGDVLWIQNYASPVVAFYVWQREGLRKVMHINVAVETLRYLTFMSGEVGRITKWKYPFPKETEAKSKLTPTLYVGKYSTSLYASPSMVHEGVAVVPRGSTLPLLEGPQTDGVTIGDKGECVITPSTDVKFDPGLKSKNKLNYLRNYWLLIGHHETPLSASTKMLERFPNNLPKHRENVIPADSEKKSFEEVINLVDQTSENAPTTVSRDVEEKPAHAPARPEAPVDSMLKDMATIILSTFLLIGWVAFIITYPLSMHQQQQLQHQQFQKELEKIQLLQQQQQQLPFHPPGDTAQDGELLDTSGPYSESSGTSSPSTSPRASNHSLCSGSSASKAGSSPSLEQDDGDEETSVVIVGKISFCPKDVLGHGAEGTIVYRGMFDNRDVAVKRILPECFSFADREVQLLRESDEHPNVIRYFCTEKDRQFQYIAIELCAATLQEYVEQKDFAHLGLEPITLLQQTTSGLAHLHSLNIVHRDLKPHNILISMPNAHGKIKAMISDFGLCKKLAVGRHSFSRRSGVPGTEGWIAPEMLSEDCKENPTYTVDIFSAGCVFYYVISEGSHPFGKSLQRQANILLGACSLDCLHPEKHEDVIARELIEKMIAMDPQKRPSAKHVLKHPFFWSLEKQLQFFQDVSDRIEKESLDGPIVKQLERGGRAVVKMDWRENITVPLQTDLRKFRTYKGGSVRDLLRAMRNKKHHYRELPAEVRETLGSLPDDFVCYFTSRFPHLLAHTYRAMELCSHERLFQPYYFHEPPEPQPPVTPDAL
Sequence of UniProt Q14164 (whole entry, looked up): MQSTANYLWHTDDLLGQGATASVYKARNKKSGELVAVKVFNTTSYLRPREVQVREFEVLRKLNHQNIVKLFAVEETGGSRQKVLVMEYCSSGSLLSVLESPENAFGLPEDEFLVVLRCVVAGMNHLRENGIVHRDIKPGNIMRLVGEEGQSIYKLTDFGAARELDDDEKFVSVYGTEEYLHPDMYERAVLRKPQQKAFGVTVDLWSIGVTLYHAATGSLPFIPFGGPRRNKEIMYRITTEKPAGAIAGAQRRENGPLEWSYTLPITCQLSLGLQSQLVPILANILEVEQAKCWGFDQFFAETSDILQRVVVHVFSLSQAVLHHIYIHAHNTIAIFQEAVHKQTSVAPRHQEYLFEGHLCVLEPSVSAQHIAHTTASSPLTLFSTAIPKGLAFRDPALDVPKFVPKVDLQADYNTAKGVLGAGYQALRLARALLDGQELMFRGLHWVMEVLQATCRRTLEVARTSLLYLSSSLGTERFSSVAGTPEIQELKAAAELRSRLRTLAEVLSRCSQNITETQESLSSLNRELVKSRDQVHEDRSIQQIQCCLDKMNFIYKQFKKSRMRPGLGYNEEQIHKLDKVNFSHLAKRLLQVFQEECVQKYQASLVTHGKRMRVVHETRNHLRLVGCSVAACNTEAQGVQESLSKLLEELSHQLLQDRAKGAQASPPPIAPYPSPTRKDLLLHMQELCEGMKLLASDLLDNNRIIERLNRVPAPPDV
Sequence of UniProt O95747 (whole entry, looked up): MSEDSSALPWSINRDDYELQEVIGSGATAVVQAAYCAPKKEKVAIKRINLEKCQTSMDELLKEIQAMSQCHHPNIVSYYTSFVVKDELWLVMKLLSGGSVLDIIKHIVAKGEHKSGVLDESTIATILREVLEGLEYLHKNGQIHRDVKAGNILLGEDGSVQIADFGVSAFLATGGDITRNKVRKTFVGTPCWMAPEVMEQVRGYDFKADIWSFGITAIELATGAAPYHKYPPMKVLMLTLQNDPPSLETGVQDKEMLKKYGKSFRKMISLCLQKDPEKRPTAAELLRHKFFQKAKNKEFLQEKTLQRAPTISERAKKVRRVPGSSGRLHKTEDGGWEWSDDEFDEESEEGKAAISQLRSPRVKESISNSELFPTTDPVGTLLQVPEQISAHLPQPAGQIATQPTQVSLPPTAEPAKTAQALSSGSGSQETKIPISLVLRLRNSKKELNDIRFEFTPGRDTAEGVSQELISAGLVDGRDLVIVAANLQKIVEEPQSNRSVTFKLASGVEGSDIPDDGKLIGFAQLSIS

Sample 1
Cell line: HaCaT
Tested at: 100 µM
Time: 36 h
Measurement: viability
C[C@H]1O[C@@H](O[C@H]2CC[C@@]3(C)[C@@H](CC[C@]4(C)[C@@H]3C=C[C@]35OC[C@@]6(CCC(C)(C)C[C@H]63)[C@@H](O)C[C@]54C)[C@]2(C)CO)[C@H](O)[C@@H](O[C@@H]2O[C@H](CO)[C@@H](O)[C@H](O)[C@H]2O)[C@H]1O: 6.58%
CC(C)(C)NC[C@H](O)COc1nsnc1N1CCOCC1: 85.4%
OC[C@@H](O)[C@@H](O)[C@H](O)[C@@H](O)CO: 99%
Brc1c(NC2=NCCN2)ccc2nccnc12: 67.2%
CC[C@H]1OC(=O)[C@H](C)[C@@H](O[C@H]2C[C@@](C)(OC)[C@@H](O)[C@H](C)O2)[C@H](C)[C@@H](O[C@@H]2O[C@H](C)C[C@H](N(C)C)[C@H]2O)[C@](C)(OC)C[C@@H](C)C(=O)[C@H](C)[C@@H](O)[C@]1(C)O: 87%
CC(=O)OCC(CCn1cnc2cnc(N)nc21)COC(C)=O: 94.3%
COCCOC(=O)C1=C(C)NC(C)=C(C(=O)OC/C=C/c2ccccc2)C1c1cccc([N+](=O)[O-])c1 (centres unmarked): 45.4%

Sample 2
Structure (SMILES): CC(C)n1cnc(-c2ccc(F)cc2)c1-c1ncc(C(=O)Nc2ccc(N3CCN(C)CC3)cc2)[nH]1
Measurement: patients with TEAE
phase 2a trial; patients with idiopathic pulmonary fibrosis; dose not given, allergic conjunctivitis, grade 4, all arms: 0%
phase 2a trial; idiopathic pulmonary fibrosis patients; oral, 60 mg once daily, CK-MB increased, grade 2: 0%
measured: glutamate dehydrogenase increased; idiopathic pulmonary fibrosis patients; 60 mg once daily: 0%
phase 2a trial; idiopathic pulmonary fibrosis patients; oral, 60 mg once daily, urine red cells, grade 3: 0%
phase 2a trial; idiopathic pulmonary fibrosis patients; oral, 30 mg once daily, GLDH increased, grade 3: 0%
phase 2a trial; patients with idiopathic pulmonary fibrosis; 60 mg once daily, free thyroxine decreased, grade 2: 0%
phase 2a trial; patients with idiopathic pulmonary fibrosis; 60 mg once daily, renal and urinary disorders SOC, grade 5: 0%
phase 2a trial; idiopathic pulmonary fibrosis patients; oral, dose not given, ESR increased, grade 5, all arms: 0%
phase 2a trial; patients with idiopathic pulmonary fibrosis; dose not given, atopic dermatitis, grade 3, all arms: 0%
phase 2a trial; idiopathic pulmonary fibrosis patients; oral, dose not given, LDL increased, grade 5, all arms: 0%
phase 2a trial; idiopathic pulmonary fibrosis patients; oral, 30 mg once daily, urine red cells, grade 1: 0%
phase 2a trial; patients with idiopathic pulmonary fibrosis; 60 mg once daily, skin papilloma, maximum intensity grade 2: 0%
phase 2a trial; patients with idiopathic pulmonary fibrosis; dose not given, endocrine disorders SOC, grade 1, all arms: 0%
phase 2a trial; patients with idiopathic pulmonary fibrosis; 30 mg once daily, nervous system disorders SOC, grade 4: 0%

Sample 3
Compound: COc1cc2ncc(-c3ccccc3)nc2cc1OC
Observed: enzyme activity
Action: inhibitor
Tested at: 0.5 µM
Relative to: control
Measurement: remaining activity
cGMP-dependent protein kinase 1, isoform beta (PRKG1, Homo sapiens, UniProt Q13976): 96.2%
Death-associated protein kinase 1 (DAPK1, Homo sapiens, UniProt P53355): 99.7%
Protein kinase C alpha type (PRKCA, Homo sapiens, UniProt P17252): 103%
Inhibitor of nuclear factor kappa-B kinase subunit beta (IKBKB, Homo sapiens, UniProt O14920): 101%
Cyclin-dependent kinase 4, with cyclin D1 (CDK4, Homo sapiens, UniProt P11802): 103%
Protein kinase C beta type, isoform beta-I (PRKCB, Homo sapiens, UniProt P05771): 105%
cAMP-dependent protein kinase catalytic subunit alpha (PRKACA, Homo sapiens, UniProt P17612): 99.4%
Calcium/calmodulin-dependent protein kinase type II subunit delta (CAMK2D, Homo sapiens, UniProt Q13557): 87.5%
Serine/threonine-protein kinase 10 (STK10, Homo sapiens, UniProt O94804): 89.6%
Serine/threonine-protein kinase Chk2 (CHEK2, Homo sapiens, UniProt O96017): 94.2%
Inhibitor of nuclear factor kappa-B kinase subunit epsilon (IKBKE, Homo sapiens, UniProt Q14164): 98.9%
G protein-coupled receptor kinase 3 (GRK3, Homo sapiens, UniProt P35626): 94.3%
Cyclin-dependent kinase 5, with p25 (CDK5, Homo sapiens, UniProt Q00535): 94.6%
TGF-beta receptor type-1 (TGFBR1, Homo sapiens, UniProt P36897): 101%
Tyrosine-protein kinase Lyn, isoform B (LYN, Homo sapiens, UniProt P07948): 96.9%
Calcium/calmodulin-dependent protein kinase kinase 2 (CAMKK2, Homo sapiens, UniProt Q96RR4): 114%
Serine/threonine-protein kinase STK11 (STK11, Homo sapiens, UniProt Q15831): 86.8%
STE20/SPS1-related proline-alanine-rich protein kinase (STK39, Homo sapiens, UniProt Q9UEW8): 88%
Mitogen-activated protein kinase 9 (MAPK9, Homo sapiens, UniProt P45984): 93.1%
Serine/threonine-protein kinase OSR1 (OXSR1, Homo sapiens, UniProt O95747): 100%
Serine/threonine-protein kinase Nek2 (NEK2, Homo sapiens, UniProt P51955): 85.3%
TGF-beta receptor type-2 (TGFBR2, Homo sapiens, UniProt P37173): 75%
Death-associated protein kinase 2 (DAPK2, Homo sapiens, UniProt Q9UIK4): 97.3%
Mitogen-activated protein kinase kinase kinase 3 (MAP3K3, Homo sapiens, UniProt Q99759): 90.3%

Sample 4
SMILES: CC(=O)N1CCC(c2ccc(C(=O)NC3=NCCN3)cc2C(F)(F)F)CC1
Observed: cell-free assay
Method: competition with immobilised ligand
Tested at: 1 µM
Measurement: remaining binding
Tyrosine-protein kinase ABL1, non-phosphorylated (ABL1, Homo sapiens, UniProt P00519, F317L): 87%
Epidermal growth factor receptor (EGFR, Homo sapiens, UniProt P00533, L858R): 100%
Serine/threonine-protein kinase PLK1 (PLK1, Homo sapiens, UniProt P53350): 88%
Cyclin-dependent kinase 13 (CDK13, Homo sapiens, UniProt Q14004): 100%
Ephrin type-A receptor 7 (EPHA7, Homo sapiens, UniProt Q15375): 99%
Serine/threonine-protein kinase MRCK beta (CDC42BPB, Homo sapiens, UniProt Q9Y5S2): 100%
SRSF protein kinase 1 (SRPK1, Homo sapiens, UniProt Q96SB4): 100%
MAP/microtubule affinity-regulating kinase 4 (MARK4, Homo sapiens, UniProt Q96L34): 100%
Serine/threonine-protein kinase/endoribonuclease IRE1 (ERN1, Homo sapiens, UniProt O75460): 60%
Serine/threonine-protein kinase Nek5 (NEK5, Homo sapiens, UniProt Q6P3R8): 100%
Epidermal growth factor receptor (EGFR, Homo sapiens, UniProt P00533, del747-750/T751S): 100%
Receptor-type tyrosine-protein kinase FLT3 (FLT3, Homo sapiens, UniProt P36888, D835V/ITD): 89%
Mitogen-activated protein kinase kinase kinase 6 (MAP3K6, Homo sapiens, UniProt O95382): 93%
Ribosomal protein S6 kinase alpha-2, N-terminal kinase domain (RPS6KA2, Homo sapiens, UniProt Q15349): 100%

For quick reference, copied from above (sample 1):
C[C@H]1O[C@@H](O[C@H]2CC[C@@]3(C)[C@@H](CC[C@]4(C)[C@@H]3C=C[C@]35OC[C@@]6(CCC(C)(C)C[C@H]63)[C@@H](O)C[C@]54C)[C@]2(C)CO)[C@H](O)[C@@H](O[C@@H]2O[C@H](CO)[C@@H](O)[C@H](O)[C@H]2O)[C@H]1O: 6.58%
CC(C)(C)NC[C@H](O)COc1nsnc1N1CCOCC1: 85.4%
OC[C@@H](O)[C@@H](O)[C@H](O)[C@@H](O)CO: 99%
Brc1c(NC2=NCCN2)ccc2nccnc12: 67.2%
CC[C@H]1OC(=O)[C@H](C)[C@@H](O[C@H]2C[C@@](C)(OC)[C@@H](O)[C@H](C)O2)[C@H](C)[C@@H](O[C@@H]2O[C@H](C)C[C@H](N(C)C)[C@H]2O)[C@](C)(OC)C[C@@H](C)C(=O)[C@H](C)[C@@H](O)[C@]1(C)O: 87%
CC(=O)OCC(CCn1cnc2cnc(N)nc21)COC(C)=O: 94.3%
COCCOC(=O)C1=C(C)NC(C)=C(C(=O)OC/C=C/c2ccccc2)C1c1cccc([N+](=O)[O-])c1 (centres unmarked): 45.4%
